Published values from different studies.
Every numbered part comes from another study and shows a few of its results, in no order.

Block 1
Target: RNA binding protein fox-1 homolog 2, RRM domain, GST-SBP tag (RBFOX2, Homo sapiens, UniProt O43251-10, residues 100-194)
Method: RNA Bind-n-Seq
Molecule type: RNA
Medium: in vitro
Concentration: 365 nM
Setting: natural RNA segment, single round, ends assumed
Baseline: no-protein control
Direction: higher = stronger binding
Residues (chain): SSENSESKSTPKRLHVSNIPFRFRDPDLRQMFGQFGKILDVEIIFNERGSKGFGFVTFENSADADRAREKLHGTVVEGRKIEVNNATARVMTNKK
Oligonucleotide | RBNS enrichment (R)
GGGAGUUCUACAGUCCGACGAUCUAUCGGAUGCUCAUAACACCCCUGGCCUGGCCCCUUUACUGAGAAGACUCCUUGGAUAUUUCCCAAGAACCCCCCACAUACACCCCUCACAAGCCACCCCUCCUGAGAGGUGGAAUUCUCGGGUGCCAA | 0.424
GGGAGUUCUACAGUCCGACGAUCAGGACCAUGAGAAAUUUAAUAAAAUAGAUGGACCUUCCAGGAUUUAUUGUGGAUGGAUGUGGAUAUAUUCUGUACAGAAAACUACUCAUAUGGAAGUGGACUGAAUCCUAUGGAAUUCUCGGGUGCCAA | 0.599
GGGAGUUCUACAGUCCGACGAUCGGCCCCCACCCCUCCUGCCAACCAGCACACUACAUACACUACUAUAGAAACACUACAGGUGUGUGCACACAGCACUCAGGUUGGCAUGUUUGGUGUUGAAAUGGGGUCAUUGGAAUUCUCGGGUGCCAA | 0.409
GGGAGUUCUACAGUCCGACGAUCUUUAAAAUAGAAGAUGUCCCACUUGCCAUUAAAUAUAGAAGCCAACUUUUUACCUUUUGAAAUAUGGCUACAUUUAAAACAAAAUCUCACAGCUCGGUUUUUCUUAUUUGUGGAAUUCUCGGGUGCCAA | 0.406
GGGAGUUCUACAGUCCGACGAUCAAAAUGGGAAACCUUACAGGACAUAAAACAUUAGGCUCGGGUUAGGCACUAAGAUAAAGUCUAGUCCAGUUCUCAUUUUAAAAGUCAACUAGCUCUAAAGCUAGUUAGUGUGGAAUUCUCGGGUGCCAA | 0.335
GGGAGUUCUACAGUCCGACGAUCUUUUUAGUAGAGUCAGGGUUUCACCAUGUUGGCCAGGCUGGUCUUGAAUUCCUGACCUCAAAUGAUCCACGCACCUCAGCCUCCCAAAGUGCUGGAUUACAGGCAUGAGCUGGAAUUCUCGGGUGCCAA | 1.35
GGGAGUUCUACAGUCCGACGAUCCUGAACAAAGGACAAAGGGAAAGAAUGCGCUGCUUGAUAAAAUUAACCAAAUUCUAGCAUCUCAGAGUACAGUGAAAAGCAGCAGUGUACUCAGUGAUAAAGUUAGCCAGUGGAAUUCUCGGGUGCCAA | 0.379
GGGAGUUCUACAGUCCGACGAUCUUAUUCCCAGUAAGCUUCCAUGACCCUUUCUUGGAGGCCUUCACAGGUAAUACAGAUACUGGCACUGAUUGUAAUUAAAAUGAGAGAAAACUCUAGCGCAUCUUCUGGCAUGGAAUUCUCGGGUGCCAA | 2.56
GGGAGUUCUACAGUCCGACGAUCAAAAACAUUUGUUCAACACAAACUAGAAUCACACCUUCUCACUAGAUAUCACCAAGGGAAUGUGGUUUUAAAAAUAAAAAGAAAACAAUAUAACGUAUCAUGGCAACCAGUGGAAUUCUCGGGUGCCAA | 0.364
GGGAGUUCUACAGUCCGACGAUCUACAUACUUAAAAGUUUACCAAAUGUUAACCAGAUUUUUGAAACCUCCCCCCCCCCCUAUUUAUUUAUUUUUUAUGUUGGAAAUACCCGAAUGAUGUUUGGUAAUUGUAGUGGAAUUCUCGGGUGCCAA | 2.37
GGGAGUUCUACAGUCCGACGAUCCAUUCCUGGGUUUUGUGCAGUAUACAUUUUCCCACAAAAUGGUUGUAAAGAUUUAAGUUAUUUUAAUUUAUUGUGGAUCAGAAACCUAGAUGAAACUGGUCAGAAUCUGUUGGAAUUCUCGGGUGCCAA | 0.436
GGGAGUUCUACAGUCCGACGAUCCACACAAGGAGCUGGAGAGAUGGCUCAGUGGUUACGAGCACUGACUGCUCUUCUAGAGAUCCUGAGUUCAAUUCCCAGCAACCGCAUGGUGGCUCACAACCAUCUGUAAUUGGAAUUCUCGGGUGCCAA | 0.343

Block 2
Target: Interferon regulatory factor 5, full length, phosphomimetic (IRF5, Homo sapiens, UniProt Q13568-2, residues 1-514, K96S/S451D/S453D/S456D/S462D)
Method: protein-binding microarray
Molecule type: double-stranded DNA, one strand shown
Medium: in vitro
Concentration: 250 nM
Setting: 60-bp whole probe
Together with: salmon DNA 0.4 mg/ml
Baseline: random background probes
Direction: higher = stronger binding
Constant ends, left off below: GCCTAGCAC … GTCTTGATTCGCTTGACGCTGCTG
Oligonucleotide | log fluorescence
GACGGTTTCGGGTATCGGGATGTGCTA | 8.43 z-score
GGAAGCTTCTTTTTTATTCTGTGCTAG | 0.657 z-score
GACGAACTGGGGTAACGAGACGTGCTA | -0.512 z-score
TTAGGTATCGGCATCGGTTAGTGCTAG | 3.06 z-score
TTTTTTGTATTTTTGATAGAGTGCTAG | 1.71 z-score
TTAGGTATCCTAATCCTTTAGTGCTAG | -0.0415 z-score
TTAGGACTGCTACTGCTTTGGTGCTAG | -0.46 z-score
CTGTTTTTGCTTTCCTTCTTGTGCTAG | 2.43 z-score
TTAGGTTCCCTTTTCCTATAGTGCTAG | 0.702 z-score
CTGGACCCACTTCCAAATGGGTGCTAG | -0.517 z-score
GACGGTCTCATTATCCTGACGTGCTAG | 0.00195 z-score
TTAGGTATCGGTCTCGGTAAGTGCTAG | 7.5 z-score
GACGAACTGGGGTTTCGACACGTGCTA | 1.53 z-score
TCAGGTCTGTTTCTGATACTGTGCTAG | 1.07 z-score
TTAGATTCCAGTGTCGATTAGTGCTAG | 0.678 z-score
TGAGAACTGGGGACTGGATTAGTGCTA | -0.552 z-score
TTAGATTTCGGGACAGGATTAGTGCTA | 3.13 z-score
GACGGTTTCAACTTTCGGGACGTGCTA | 5.75 z-score
CCAGTGCTTGCTCCCCTGCAGTGCTAG | -0.424 z-score
GACGGTCTCCTTTACCTGACGTGCTAG | -0.0443 z-score
TTAGGACTGGACACTGGGTCAGTGCTA | -0.635 z-score
TTATATTTTAATCACATATAGTGCTAG | 0.967 z-score

Block 3
Target: Centromere-binding protein 1, full length, N-terminal tag (CBF1, Saccharomyces cerevisiae, UniProt P17106, residues 1-351)
Chain of UniProt P17106 (whole entry, looked up): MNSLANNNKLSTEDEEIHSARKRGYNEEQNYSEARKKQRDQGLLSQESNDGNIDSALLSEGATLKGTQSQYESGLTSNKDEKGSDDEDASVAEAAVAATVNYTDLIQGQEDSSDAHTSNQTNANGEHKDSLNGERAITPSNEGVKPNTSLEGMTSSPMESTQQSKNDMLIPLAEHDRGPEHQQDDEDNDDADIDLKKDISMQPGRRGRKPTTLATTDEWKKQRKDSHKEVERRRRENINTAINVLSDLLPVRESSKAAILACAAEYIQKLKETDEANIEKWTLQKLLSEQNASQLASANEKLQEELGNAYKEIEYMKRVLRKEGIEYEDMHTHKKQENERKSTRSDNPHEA
Method: protein-binding microarray
Molecule type: double-stranded DNA, one strand shown
Medium: in vitro
Concentration: 0.8 µM
Setting: whole 60-bp probe, no competitor
Direction: higher = stronger binding
Oligonucleotide | fluorescence intensity
CTAAGACTTATATATCACGTAAAATTTGTCTCTTTCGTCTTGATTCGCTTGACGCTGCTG | 526 a.u.
CTAGTGAACAGTGATCACATTAATGAATCAACCTTCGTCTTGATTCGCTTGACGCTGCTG | 582 a.u.
GAAAACATGCTGGATAACGTGCATGATTCAATTTAGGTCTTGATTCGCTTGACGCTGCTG | 770 a.u.
CCTAACTACTATACTTACATCAGATAGCTTCGTACAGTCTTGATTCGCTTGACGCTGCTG | 537 a.u.
CCTAACTACTATATTCACGTGAAATAGCTTCGTACAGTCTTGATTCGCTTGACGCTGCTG | 3400 a.u.
GAACAGGCAAATATCATGGTGACACGCTTATAGTAGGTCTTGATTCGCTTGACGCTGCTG | 553 a.u.
GAAGATTTTTTGCCGCACGTTTCCGCGTCAGACTAGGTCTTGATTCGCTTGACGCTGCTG | 644 a.u.
CTATCGTGTGTCATTCACATGCGCATATTTTTTTTCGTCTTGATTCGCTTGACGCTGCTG | 845 a.u.
CTATGTACGAGGGTCCACGGGGTAGCAAGCACATTCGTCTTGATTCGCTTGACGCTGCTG | 586 a.u.
TGTACGAAGCTATGCTGCGTGGGTATAGTAGTTAGGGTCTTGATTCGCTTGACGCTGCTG | 519 a.u.
GAAACTCATTAAAACGGTATCACGTTTAAATATTAGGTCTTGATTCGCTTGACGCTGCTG | 1840 a.u.
CTAGCTCTGTCAAACCCCGTGGAAACGCAAACTTTCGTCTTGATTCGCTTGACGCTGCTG | 586 a.u.
CTAGGATTCCTCTATGGCGTGTGATGTCTGTATTTCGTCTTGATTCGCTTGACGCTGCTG | 619 a.u.
GAAGAGGATTATTGTCATGTGAAGGCGTGATAGTAGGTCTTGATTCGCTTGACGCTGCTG | 1260 a.u.
GAATTTCTATAGAAGCACGTATATATCTTTAATTAGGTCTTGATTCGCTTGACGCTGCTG | 485 a.u.
GAAGACTATTTATCACGTGTGATTATGTGGTCTTAGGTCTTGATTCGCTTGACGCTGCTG | 6240 a.u.
CTATTATGAAAAGGGAACGTGATATAAAAAAACTTCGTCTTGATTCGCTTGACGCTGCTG | 2450 a.u.

Block 4
Target: Histone acetyltransferase KAT6A, winged helix 2, GST fusion (KAT6A, Homo sapiens, UniProt Q92794, residues 85-181)
Method: protein binding microarray
Molecule type: double-stranded DNA, one strand shown
Medium: in vitro
Concentration: not given
Setting: 8-mer, flanks averaged, mean of 2 arrays, mostly near background
Baseline: not given
Direction: higher = stronger binding
Construct (chain): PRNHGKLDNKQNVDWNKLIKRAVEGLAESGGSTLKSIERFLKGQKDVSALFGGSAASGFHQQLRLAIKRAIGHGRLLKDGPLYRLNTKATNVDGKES
Oligonucleotide | E-score
ATACTGTC | 0.0314
CGTCAGAC | -0.145
ACTGTCGA | -0.132
AACTGTTG | -0.169
TAATAGAA | 0.057
AGCAGAAC | 0.0147
AACATGCA | -0.0187
CCAGCTAC | -0.086
TGGTGACA | -0.0789
ACAGACCC | -0.00665
CGACGTGC | -0.0365
CTAAGTTC | -0.0939
CATGCGAG | -0.252
ATAACTCC | -0.135
CGGCGGTC | 0.0635
CTTGTTGA | -0.000675
GCCCTTCA | -0.0763
CCATAGCG | -0.00792
AAAACACT | -0.0586
GATGAACA | 0.0771
GGCGAAGA | 0.102
AAAAAACA | 0.0973
GAATTCGC | 0.194
GACCTAAC | 0.155
GGCTAGCA | -0.0748

Block 5
Target: Sal-like protein 4, full length isoform A (SALL4, Homo sapiens, UniProt Q9UJQ4, residues 1-1053)
Chain of UniProt Q9UJQ4 (whole entry, looked up): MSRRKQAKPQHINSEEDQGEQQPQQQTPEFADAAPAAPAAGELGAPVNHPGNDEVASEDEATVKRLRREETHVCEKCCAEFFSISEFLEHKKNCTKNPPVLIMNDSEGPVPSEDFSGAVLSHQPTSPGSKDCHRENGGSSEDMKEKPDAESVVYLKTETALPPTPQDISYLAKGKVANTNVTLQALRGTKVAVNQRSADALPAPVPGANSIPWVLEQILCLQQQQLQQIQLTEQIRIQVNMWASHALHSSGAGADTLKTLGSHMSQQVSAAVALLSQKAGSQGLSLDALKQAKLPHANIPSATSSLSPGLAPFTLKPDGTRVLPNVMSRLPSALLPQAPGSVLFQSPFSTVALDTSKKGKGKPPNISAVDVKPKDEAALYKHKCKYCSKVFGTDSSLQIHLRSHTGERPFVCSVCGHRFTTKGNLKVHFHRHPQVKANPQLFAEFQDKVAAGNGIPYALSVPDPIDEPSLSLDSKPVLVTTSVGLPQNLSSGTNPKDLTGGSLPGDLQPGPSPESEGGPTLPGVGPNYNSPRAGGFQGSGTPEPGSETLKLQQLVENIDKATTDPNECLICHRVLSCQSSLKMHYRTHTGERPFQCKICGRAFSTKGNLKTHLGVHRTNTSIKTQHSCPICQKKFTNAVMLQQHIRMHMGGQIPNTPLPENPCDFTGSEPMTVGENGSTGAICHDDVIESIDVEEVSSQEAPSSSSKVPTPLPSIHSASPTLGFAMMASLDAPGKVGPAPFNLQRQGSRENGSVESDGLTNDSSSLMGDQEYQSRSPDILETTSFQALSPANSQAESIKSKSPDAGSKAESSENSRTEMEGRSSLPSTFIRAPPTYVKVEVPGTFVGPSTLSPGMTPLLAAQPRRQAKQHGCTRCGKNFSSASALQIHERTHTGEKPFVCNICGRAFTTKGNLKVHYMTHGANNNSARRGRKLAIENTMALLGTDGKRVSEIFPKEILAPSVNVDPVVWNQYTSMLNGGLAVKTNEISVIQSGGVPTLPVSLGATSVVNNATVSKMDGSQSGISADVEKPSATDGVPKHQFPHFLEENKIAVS
Method: universal PBM
Molecule type: double-stranded DNA, one strand shown
Medium: in vitro
Concentration: 600 nM
Setting: 8-mer, flanks averaged, mean of replicates
Direction: higher = stronger binding
Oligonucleotide | E-score
CTCTTACC | -0.0719
TCCTGAAA | 0.145
GAGGAAAA | 0.165
CAATCTAC | -0.0308
AATTTAAT | 0.307
ATCGGGCG | -0.29
CGCGGGAG | -0.304
AACCCTGT | -0.144
ATCAAATA | 0.319
ACTTATGC | 0.191
AAACCCTG | 0.0496
TCAGGGGA | -0.117
AGGGCGTA | -0.0875
AGCCTAGA | -0.155
AATCTGGC | -0.0511
ATCGGATC | -0.0175
ATTTCAGA | 0.213
TGCGTCCA | -0.274
GAAACGGA | 0.0823
CCCTCCCA | -0.178
ATTGAGGG | -0.128
ACCGTTCG | -0.131
ACGCCAAA | -0.0729
TAGAAAGA | -0.00658
AAACATAG | 0.155

Some of these lines once more (block 5):
Oligonucleotide | E-score
CTCTTACC | -0.0719
GAAACGGA | 0.0823
CAATCTAC | -0.0308
ATCGGATC | -0.0175
ATCAAATA | 0.319
ACCGTTCG | -0.131
ATTGAGGG | -0.128
TGCGTCCA | -0.274
AAACCCTG | 0.0496
TCCTGAAA | 0.145
AACCCTGT | -0.144
AGCCTAGA | -0.155
TCAGGGGA | -0.117
GAGGAAAA | 0.165
